Results collected from several papers.
Numbered parts are unrelated; each lists some results of a single study.

Sample 1 — technique: RNAcompete; form: RNA; sample: in vitro; tested at: 20 nM; notes: 7-mer, probes averaged, single round; reference: mean of 7-mers; reading: higher = stronger binding; endpoint: 7-mer Z-score
Target: PABPC1L2, full length, GST fusion (mouse, UniProt A0ABA7IW68)
Target sequence (chain): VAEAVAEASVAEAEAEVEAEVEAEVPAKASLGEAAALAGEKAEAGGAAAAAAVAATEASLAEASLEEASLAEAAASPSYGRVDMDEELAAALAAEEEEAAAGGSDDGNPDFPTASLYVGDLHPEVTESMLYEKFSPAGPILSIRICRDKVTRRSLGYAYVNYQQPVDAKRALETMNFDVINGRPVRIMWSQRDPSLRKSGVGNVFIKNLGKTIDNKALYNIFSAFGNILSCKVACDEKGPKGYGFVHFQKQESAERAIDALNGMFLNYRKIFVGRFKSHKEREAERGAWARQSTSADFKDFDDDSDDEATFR
UGCCUAC: -0.253
CAAUGAC: -0.0283
UUCUACG: -0.166
GAAUCGU: -0.197

Sample 2 — technique: protein-binding microarray; form: double-stranded DNA, one strand shown; sample: in vitro; tested at: 940 nM top; notes: 60-bp whole probe; added: salmon DNA 0.4 mg/ml; reference: random background probes; reading: higher = stronger binding; endpoint: fitted relative affinity
Target: Interferon regulatory factor 5, full length, phosphomimetic (IRF5, Homo sapiens, UniProt Q13568-2, residues 1-514, S451D/S453D/S456D/S462D)
GCCTAGCACGACGATATCGGTTTCGAGACGTGCTAGGTCTTGATTCGCTTGACGCTGCTG: 4.01 z-score
GCCTAGCACTTGGGTATCGGTTTCGGTTAGTGCTAGGTCTTGATTCGCTTGACGCTGCTG: 11.8 z-score
GCCTAGCACTTATGTTTCGACACTGGGTTAGTGCTAGTCTTGATTCGCTTGACGCTGCTG: 3.74 z-score

Sample 3 — technique: protein binding microarray; form: double-stranded DNA, one strand shown; sample: in vitro; tested at: not given; reference: not given; reading: higher = stronger binding; endpoint: E-score
Target: Histone acetyltransferase KAT6A, both winged helices, GST fusion (KAT6A, Homo sapiens, UniProt Q92794, residues 1-181)
Notes: 8-mer, flanks averaged, mean of 2 arrays, mostly near background
Residues (chain): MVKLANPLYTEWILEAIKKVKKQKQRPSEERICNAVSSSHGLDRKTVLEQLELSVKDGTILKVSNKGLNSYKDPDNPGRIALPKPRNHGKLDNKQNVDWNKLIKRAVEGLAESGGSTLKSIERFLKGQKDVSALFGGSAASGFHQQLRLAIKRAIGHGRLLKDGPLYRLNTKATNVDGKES
ATGGACTG: -0.21
ACTTCTTG: -0.101
GGCCTAAA: 0.111
ACCAATAC: -0.00888

Other studies, line by line
PhoQ, residues 284 288 289 292 302 303 AMDMFI
fold induction (PhoP, residues 12 14 15 18 19 IQSYL (Escherichia coli, UniProt P23836); Sort-seq, measured: YFP reporter; E. coli; PhoQ-PhoP variant library, added: 10 µM Mg2+; reference: high Mg2+ state, higher = stronger signaling): 0.258

Some of these lines once more (sample 3):
GGCCTAAA: 0.111
